Published values of several laboratories.
Numbered parts are unrelated; each lists some results of a single study.
Chain of UniProt P49137 (whole entry, looked up): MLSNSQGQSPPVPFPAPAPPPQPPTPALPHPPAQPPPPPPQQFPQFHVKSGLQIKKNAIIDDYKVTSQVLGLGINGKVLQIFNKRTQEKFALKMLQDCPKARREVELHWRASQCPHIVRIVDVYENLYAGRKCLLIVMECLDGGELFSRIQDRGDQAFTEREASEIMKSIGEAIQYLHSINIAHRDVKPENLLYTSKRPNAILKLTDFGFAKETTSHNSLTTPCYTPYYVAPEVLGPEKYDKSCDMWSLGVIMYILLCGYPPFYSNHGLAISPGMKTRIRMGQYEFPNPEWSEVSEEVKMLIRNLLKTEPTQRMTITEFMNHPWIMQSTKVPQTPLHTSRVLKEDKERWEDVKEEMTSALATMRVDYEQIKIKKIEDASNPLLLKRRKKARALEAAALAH
Chain of UniProt P49841 (whole entry, looked up): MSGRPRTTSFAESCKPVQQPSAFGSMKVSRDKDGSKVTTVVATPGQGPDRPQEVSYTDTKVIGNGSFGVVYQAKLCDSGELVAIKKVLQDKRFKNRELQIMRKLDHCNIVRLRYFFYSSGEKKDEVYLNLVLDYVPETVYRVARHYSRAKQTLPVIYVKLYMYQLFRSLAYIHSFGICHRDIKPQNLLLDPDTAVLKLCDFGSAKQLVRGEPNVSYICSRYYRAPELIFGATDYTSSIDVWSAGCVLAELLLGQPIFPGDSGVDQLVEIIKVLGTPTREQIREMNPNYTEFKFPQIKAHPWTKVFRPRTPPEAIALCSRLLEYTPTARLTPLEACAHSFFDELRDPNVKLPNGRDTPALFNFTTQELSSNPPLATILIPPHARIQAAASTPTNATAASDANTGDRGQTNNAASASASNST
Chain of UniProt Q9UL54 (whole entry, looked up): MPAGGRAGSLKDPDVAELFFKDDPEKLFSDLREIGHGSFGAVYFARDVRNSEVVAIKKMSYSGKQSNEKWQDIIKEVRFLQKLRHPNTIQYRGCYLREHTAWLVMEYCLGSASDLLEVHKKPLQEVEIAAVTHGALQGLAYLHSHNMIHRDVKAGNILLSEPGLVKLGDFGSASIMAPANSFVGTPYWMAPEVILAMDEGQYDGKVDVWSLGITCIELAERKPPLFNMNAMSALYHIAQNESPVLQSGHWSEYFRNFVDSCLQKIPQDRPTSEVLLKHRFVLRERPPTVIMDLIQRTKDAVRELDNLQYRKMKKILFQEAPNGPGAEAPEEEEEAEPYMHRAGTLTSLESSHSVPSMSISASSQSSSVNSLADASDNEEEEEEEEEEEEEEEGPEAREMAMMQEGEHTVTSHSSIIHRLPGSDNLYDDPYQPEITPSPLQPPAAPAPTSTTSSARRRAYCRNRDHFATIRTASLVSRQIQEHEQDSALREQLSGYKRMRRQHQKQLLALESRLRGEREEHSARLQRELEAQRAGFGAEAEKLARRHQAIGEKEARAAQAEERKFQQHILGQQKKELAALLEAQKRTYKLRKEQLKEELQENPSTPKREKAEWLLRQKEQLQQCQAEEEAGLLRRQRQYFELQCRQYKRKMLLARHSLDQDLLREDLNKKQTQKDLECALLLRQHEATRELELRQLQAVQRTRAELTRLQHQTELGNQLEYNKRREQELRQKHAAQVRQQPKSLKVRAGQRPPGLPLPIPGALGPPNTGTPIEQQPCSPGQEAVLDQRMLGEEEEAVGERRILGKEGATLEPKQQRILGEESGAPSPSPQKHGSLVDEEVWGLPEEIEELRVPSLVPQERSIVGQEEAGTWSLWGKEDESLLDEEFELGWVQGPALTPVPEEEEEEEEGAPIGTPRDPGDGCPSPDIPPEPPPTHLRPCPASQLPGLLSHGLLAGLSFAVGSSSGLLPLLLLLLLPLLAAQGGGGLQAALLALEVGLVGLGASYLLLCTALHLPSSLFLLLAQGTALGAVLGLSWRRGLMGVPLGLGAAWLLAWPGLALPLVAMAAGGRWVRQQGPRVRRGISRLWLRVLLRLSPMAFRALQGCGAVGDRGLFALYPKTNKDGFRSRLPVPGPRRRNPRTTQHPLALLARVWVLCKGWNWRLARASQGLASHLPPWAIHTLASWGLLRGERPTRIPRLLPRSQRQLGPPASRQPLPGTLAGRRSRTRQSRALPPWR
Chain of UniProt P30291 (whole entry, looked up): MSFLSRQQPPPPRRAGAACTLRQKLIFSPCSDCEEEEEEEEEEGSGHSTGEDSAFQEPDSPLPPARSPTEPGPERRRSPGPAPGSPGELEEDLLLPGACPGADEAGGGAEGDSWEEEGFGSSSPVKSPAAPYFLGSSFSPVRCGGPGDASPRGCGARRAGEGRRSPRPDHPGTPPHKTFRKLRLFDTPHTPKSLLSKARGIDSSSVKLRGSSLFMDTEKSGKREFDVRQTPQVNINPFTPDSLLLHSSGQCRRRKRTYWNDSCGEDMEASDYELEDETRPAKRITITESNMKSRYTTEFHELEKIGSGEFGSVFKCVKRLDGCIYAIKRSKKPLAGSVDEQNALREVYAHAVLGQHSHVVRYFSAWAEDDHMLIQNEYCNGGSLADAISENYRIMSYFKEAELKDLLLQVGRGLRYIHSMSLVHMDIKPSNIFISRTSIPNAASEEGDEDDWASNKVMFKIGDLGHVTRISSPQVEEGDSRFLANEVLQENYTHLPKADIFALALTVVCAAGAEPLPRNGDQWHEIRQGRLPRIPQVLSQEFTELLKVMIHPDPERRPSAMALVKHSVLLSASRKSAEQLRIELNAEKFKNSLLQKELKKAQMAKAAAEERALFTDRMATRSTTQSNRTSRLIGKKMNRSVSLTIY
Chain of UniProt P78368 (whole entry, looked up): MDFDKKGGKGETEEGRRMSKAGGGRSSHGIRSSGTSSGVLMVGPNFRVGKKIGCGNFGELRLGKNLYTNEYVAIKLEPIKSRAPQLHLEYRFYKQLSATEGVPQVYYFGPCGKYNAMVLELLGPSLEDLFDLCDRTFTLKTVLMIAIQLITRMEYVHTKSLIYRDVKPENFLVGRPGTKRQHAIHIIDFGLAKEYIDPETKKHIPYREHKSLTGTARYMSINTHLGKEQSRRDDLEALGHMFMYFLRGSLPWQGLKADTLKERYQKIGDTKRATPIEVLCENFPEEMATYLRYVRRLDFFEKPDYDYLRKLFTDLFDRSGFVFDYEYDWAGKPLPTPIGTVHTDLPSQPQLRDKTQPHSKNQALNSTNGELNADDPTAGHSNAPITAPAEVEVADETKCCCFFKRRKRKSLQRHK
Chain of UniProt Q9UHD2 (whole entry, looked up): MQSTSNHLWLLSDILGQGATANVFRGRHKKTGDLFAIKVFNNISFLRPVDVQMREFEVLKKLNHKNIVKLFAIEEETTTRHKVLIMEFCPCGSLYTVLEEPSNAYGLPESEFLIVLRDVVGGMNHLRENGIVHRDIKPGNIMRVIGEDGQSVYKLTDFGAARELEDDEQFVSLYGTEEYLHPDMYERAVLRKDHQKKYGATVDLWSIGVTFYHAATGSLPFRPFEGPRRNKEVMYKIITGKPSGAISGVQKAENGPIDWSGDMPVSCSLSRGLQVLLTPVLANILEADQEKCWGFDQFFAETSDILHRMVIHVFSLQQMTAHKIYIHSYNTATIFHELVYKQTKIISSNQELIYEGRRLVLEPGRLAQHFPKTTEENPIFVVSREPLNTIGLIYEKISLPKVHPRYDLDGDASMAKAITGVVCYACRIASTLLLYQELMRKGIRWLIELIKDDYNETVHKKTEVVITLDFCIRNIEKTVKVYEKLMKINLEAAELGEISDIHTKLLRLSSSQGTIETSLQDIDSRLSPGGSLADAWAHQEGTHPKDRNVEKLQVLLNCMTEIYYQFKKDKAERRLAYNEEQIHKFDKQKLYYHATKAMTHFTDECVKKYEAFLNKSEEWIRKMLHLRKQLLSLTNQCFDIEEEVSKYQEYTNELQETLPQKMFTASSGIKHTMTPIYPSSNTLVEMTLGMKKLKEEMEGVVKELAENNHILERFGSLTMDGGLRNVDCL
Chain of UniProt O15075 (whole entry, looked up): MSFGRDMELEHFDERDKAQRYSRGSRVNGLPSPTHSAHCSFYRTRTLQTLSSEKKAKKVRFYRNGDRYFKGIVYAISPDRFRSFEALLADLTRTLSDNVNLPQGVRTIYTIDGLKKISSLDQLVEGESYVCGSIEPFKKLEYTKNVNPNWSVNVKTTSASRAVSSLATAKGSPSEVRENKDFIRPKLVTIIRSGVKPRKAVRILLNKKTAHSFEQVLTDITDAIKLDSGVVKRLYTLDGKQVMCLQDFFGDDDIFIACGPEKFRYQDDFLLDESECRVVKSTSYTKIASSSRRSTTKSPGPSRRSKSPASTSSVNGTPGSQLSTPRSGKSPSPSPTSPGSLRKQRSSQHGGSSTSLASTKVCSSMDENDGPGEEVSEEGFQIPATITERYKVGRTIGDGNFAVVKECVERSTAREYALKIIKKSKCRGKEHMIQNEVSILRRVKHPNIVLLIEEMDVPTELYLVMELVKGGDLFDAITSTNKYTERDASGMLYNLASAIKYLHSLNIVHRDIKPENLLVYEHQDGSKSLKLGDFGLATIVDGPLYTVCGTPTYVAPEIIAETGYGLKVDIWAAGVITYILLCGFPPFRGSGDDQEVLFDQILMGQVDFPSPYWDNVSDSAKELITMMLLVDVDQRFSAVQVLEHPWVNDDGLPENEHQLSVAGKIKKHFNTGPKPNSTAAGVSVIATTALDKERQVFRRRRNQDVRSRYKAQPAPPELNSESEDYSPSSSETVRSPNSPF
Chain of UniProt Q9Y6M4 (whole entry, looked up): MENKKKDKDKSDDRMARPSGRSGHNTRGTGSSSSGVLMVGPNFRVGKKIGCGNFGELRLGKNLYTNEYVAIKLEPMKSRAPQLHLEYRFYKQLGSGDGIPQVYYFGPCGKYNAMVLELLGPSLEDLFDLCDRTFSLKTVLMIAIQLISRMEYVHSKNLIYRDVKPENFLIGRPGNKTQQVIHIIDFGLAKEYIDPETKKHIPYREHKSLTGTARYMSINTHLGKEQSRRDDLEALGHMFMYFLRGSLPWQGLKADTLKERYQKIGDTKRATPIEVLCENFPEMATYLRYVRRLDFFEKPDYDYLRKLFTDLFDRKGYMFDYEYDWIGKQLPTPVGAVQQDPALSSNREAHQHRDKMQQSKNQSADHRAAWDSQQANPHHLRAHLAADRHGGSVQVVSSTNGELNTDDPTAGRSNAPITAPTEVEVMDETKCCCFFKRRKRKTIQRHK

Series 1
SMILES: COc1cc(-c2cn(C3CCc4ccccc4N(CC(F)(F)F)C3=O)nn2)ccc1-n1ccc(C)n1 (stereo not shown)
Observed: cell-free assay
Method: competition with immobilised ligand
Tested at: 1 µM
Quantity: remaining binding
Transient receptor potential cation channel subfamily M member 6 (TRPM6, Homo sapiens, UniProt Q9BX84): 100%
Serine/threonine-protein kinase DCLK1 (DCLK1, Homo sapiens, UniProt O15075): 100%
Protein kinase C iota type (PRKCI, Homo sapiens, UniProt P41743): 100%

Series 2
SMILES: CC[n+]1c(/C=C/N(C)c2ccccc2)n(-c2ccccc2)c2ccc(-c3nc4ccccc4s3)cc21
Observed: enzyme activity
Action: inhibitor
Tested at: 0.5 µM
Relative to: control
Quantity: remaining activity
Mitogen-activated protein kinase kinase kinase 5 (MAP3K5, Homo sapiens, UniProt Q99683): 100%
Ribosomal protein S6 kinase alpha-2 (RPS6KA2, Homo sapiens, UniProt Q15349): 101%
Serine/threonine-protein kinase TBK1 (TBK1, Homo sapiens, UniProt Q9UHD2): 95.7%
Serine/threonine-protein kinase TAO2 (TAOK2, Homo sapiens, UniProt Q9UL54): 97.7%
Casein kinase I isoform gamma-2 (CSNK1G2, Homo sapiens, UniProt P78368): 101%
Glycogen synthase kinase-3 beta (GSK3B, Homo sapiens, UniProt P49841): 105%
Wee1-like protein kinase (WEE1, Homo sapiens, UniProt P30291): 92.4%
Serine/threonine-protein kinase Nek1 (NEK1, Homo sapiens, UniProt Q96PY6): 102%
MAP kinase-activated protein kinase 2 (MAPKAPK2, Homo sapiens, UniProt P49137): 97.2%
Angiopoietin-1 receptor (TEK, Homo sapiens, UniProt Q02763): 96%
Macrophage-stimulating protein receptor (MST1R, Homo sapiens, UniProt Q04912): 94.4%
Casein kinase I isoform gamma-3 (CSNK1G3, Homo sapiens, UniProt Q9Y6M4): 92.4%
Dual specificity mitogen-activated protein kinase kinase 2 (MAP2K2, Homo sapiens, UniProt P36507): 88.5%
Serine/threonine-protein kinase Nek6 (NEK6, Homo sapiens, UniProt Q9HC98): 96.1%

Series 3
Cell line: HaCaT
Tested at: 100 µM
Time: 18 h
Quantity: viability
COC(=O)C1=CO[C@@H](O)[C@@H]2C(CO)=CC[C@H]12: 100%
COc1ccc(-c2cc(=S)ss2)cc1: 86.8%
Cc1c(-c2ccc(O)cc2)n(Cc2ccc(OCCN3CCCCCC3)cc2)c2ccc(O)cc12: 19%

Series 4
Target: Interferon regulatory factor 7, full length, phosphomimetic (IRF7, Homo sapiens, UniProt Q92985, residues 1-503, S471D/S472D/S475D/S476D/S477D/S483D/S484D/S487D)
Method: protein-binding microarray
Form: double-stranded DNA, one strand shown
Sample: in vitro
Tested at: 2200 nM top
Notes: 60-bp whole probe
Added: salmon DNA 0.4 mg/ml
Relative to: random background probes
Reading: higher = stronger binding
Quantity: fitted relative affinity
Shared flanks, not repeated: GCCTAGCAC … GTCTTGATTCGCTTGACGCTGCTG
Construct (chain): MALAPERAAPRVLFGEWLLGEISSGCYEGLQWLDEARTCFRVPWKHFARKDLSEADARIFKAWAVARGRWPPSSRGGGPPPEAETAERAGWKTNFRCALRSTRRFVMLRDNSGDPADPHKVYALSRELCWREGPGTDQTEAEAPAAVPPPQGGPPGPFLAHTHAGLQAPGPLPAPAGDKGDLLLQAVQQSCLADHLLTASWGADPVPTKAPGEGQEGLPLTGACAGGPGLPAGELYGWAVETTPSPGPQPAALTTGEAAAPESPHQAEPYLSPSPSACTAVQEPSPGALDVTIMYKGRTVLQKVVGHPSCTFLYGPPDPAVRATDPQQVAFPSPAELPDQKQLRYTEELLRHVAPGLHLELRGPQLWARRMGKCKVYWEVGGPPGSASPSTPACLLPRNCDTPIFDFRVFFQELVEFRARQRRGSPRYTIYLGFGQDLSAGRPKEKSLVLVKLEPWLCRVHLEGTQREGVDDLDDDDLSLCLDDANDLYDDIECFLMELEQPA
GACGGTATCGACATTCGGGACGTGCTA: 0.484 z-score
GGGCCAGCAGCCAGGTGGAGGTGCTAG: -1.78 z-score
TTAGATCTCGGACTGGGTTAGTGCTAG: 0.000582 z-score
CTTTAACTCATTCTCTGCTTGTGCTAG: 1.25 z-score
TCATTTTCCTAATTGAAACTGTGCTAG: 3.4 z-score
TTAGATTTCGGGACTGGAGTAGTGCTA: 0.945 z-score
AGCAGTTTCTCAACCACTTTGTGCTAG: 0.723 z-score
TCATTTTTGCTTACGATACTGTGCTAG: 2.33 z-score

Excerpt of the above (series 2):
Ribosomal protein S6 kinase alpha-2 (RPS6KA2, Homo sapiens, UniProt Q15349): 101%
Serine/threonine-protein kinase TBK1 (TBK1, Homo sapiens, UniProt Q9UHD2): 95.7%
Serine/threonine-protein kinase TAO2 (TAOK2, Homo sapiens, UniProt Q9UL54): 97.7%
